# Measurements pooled from the literature.
# Each numbered part is a random draw from the data of one study; scales do not carry over between parts.
# Chain of UniProt O75116 (whole entry, looked up): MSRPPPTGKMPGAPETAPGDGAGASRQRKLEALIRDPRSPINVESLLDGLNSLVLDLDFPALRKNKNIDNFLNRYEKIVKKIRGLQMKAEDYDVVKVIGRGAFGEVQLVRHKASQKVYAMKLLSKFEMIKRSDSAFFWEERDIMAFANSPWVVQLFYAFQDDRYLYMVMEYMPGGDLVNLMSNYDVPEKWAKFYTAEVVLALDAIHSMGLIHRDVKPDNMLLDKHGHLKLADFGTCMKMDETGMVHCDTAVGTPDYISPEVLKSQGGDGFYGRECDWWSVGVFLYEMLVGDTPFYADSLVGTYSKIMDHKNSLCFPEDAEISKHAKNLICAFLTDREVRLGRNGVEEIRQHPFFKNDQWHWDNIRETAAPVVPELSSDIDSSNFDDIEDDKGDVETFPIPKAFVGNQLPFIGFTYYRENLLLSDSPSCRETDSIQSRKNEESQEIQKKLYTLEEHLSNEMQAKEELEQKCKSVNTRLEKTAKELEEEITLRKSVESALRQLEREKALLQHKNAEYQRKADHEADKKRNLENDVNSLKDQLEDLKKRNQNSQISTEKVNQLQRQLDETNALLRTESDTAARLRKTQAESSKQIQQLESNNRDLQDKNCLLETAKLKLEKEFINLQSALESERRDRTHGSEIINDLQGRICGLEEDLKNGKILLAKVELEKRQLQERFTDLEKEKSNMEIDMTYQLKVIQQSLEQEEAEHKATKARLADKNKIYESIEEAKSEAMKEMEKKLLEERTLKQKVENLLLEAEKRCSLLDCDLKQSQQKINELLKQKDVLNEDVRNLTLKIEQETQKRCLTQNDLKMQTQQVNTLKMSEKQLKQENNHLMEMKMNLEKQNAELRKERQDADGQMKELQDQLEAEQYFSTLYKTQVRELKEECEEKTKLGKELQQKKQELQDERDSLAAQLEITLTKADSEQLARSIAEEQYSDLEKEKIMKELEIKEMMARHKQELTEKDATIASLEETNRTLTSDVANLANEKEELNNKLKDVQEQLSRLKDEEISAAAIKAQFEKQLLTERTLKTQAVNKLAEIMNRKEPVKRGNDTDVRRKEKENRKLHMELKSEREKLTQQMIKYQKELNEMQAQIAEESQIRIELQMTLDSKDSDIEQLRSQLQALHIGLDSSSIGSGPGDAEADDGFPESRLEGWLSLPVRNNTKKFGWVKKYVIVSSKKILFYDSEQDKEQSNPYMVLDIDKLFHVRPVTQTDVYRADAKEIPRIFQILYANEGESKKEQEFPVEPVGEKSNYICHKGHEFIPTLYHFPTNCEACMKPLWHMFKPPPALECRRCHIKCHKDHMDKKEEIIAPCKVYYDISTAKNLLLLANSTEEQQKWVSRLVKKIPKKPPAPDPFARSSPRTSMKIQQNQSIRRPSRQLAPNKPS
# Chain of UniProt Q8TD19 (whole entry, looked up): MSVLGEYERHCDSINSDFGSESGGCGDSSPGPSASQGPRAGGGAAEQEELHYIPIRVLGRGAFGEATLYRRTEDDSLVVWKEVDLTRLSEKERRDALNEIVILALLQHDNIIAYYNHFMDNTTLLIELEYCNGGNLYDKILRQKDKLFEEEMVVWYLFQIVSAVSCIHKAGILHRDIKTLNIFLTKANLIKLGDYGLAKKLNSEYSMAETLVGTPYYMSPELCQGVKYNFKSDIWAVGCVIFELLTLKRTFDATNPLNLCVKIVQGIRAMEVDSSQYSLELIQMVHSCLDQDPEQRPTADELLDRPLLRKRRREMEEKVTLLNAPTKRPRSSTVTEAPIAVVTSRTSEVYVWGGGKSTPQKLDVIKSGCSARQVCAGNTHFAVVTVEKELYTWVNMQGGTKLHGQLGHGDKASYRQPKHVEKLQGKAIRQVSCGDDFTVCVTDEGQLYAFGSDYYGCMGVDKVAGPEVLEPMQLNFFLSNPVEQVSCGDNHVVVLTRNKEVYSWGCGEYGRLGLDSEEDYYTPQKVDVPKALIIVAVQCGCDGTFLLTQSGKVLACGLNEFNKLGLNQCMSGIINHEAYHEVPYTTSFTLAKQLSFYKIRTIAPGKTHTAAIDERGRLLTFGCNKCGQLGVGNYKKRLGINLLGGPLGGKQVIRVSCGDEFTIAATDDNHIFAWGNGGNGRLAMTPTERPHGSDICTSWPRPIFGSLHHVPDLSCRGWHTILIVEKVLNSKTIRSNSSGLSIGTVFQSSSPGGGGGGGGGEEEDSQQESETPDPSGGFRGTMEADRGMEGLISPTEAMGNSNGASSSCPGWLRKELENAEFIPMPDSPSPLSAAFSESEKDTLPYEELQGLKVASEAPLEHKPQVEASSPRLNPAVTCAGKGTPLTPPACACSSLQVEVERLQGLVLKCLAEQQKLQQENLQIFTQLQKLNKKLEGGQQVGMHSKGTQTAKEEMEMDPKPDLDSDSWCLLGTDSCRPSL
# Chain of UniProt Q15139 (whole entry, looked up): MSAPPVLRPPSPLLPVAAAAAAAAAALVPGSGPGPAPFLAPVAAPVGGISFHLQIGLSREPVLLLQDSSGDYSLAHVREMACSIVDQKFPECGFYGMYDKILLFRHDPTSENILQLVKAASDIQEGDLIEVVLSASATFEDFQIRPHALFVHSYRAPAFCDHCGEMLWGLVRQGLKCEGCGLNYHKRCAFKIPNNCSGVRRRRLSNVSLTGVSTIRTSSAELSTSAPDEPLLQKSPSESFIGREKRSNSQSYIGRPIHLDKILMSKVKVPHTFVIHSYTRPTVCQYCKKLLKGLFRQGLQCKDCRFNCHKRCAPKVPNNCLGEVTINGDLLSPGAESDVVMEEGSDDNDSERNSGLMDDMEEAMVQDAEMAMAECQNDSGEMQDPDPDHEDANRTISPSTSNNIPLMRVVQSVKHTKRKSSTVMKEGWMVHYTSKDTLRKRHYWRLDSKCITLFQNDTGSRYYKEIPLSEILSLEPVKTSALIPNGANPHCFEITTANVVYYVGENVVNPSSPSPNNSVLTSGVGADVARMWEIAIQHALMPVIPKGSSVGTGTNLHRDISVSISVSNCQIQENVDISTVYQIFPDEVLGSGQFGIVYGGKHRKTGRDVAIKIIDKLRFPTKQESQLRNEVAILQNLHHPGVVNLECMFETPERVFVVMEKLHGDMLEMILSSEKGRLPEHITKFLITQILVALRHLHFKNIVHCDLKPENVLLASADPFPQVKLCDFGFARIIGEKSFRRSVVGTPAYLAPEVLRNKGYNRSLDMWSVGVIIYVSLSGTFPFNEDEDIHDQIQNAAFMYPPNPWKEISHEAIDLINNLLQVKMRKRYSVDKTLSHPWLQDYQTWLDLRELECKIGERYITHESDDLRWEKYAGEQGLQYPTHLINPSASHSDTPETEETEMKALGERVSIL
# Chain of UniProt P25098 (whole entry, looked up): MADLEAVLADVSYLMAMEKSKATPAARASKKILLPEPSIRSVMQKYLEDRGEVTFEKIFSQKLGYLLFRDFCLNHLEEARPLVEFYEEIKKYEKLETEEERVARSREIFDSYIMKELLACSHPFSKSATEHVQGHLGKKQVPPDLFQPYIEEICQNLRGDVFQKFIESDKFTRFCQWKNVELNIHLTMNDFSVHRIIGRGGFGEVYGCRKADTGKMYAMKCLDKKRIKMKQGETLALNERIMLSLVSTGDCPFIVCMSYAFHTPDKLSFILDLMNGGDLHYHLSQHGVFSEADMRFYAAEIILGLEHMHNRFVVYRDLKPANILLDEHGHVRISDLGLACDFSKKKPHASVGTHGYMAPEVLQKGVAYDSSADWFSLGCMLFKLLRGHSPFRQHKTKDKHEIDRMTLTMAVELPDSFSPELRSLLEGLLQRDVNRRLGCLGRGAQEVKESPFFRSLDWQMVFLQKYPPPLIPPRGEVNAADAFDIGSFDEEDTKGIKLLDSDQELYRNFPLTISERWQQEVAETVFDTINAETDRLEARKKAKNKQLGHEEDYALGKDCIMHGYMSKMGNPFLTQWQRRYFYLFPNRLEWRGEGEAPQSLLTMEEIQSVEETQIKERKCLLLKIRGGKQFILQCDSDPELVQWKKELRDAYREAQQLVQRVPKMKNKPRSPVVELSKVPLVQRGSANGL
# Chain of UniProt P53779 (whole entry, looked up): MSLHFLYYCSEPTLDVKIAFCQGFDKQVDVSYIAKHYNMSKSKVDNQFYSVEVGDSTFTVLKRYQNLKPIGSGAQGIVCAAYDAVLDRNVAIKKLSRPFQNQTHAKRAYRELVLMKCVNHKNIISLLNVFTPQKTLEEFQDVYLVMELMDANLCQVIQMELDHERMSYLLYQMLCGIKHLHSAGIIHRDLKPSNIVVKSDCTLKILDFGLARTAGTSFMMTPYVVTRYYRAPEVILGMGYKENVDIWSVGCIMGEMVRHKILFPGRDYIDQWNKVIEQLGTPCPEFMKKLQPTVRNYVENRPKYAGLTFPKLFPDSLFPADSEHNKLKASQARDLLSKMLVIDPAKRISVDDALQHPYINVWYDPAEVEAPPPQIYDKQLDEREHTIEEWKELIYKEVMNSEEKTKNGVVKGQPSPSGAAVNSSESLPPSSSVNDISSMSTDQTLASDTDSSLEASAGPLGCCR

# Series 1
# Structure (SMILES): CC(C)CC(=O)N1CCc2nc(-c3ccc(Br)cc3)nc(N(C)Cc3ccccc3)c2C1
# Observed: cell-free assay
# Technique: competition with immobilised ligand
# Concentration: 0.1 µM
target,remaining binding [%]
"Mitogen-activated protein kinase kinase kinase kinase 2 (MAP4K2, Homo sapiens, UniProt Q12851)",100
"Ribosomal protein S6 kinase alpha-5, C-terminal kinase domain (RPS6KA5, Homo sapiens, UniProt O75582)",100
"Receptor-type tyrosine-protein kinase FLT3 (FLT3, Homo sapiens, UniProt P36888, D835V)",95
"Serine/threonine-protein kinase ICK (CILK1, Homo sapiens, UniProt Q9UPZ9)",100
"Tyrosine-protein kinase ABL1, non-phosphorylated (ABL1, Homo sapiens, UniProt P00519, F317L)",100
"Interleukin-1 receptor-associated kinase 3 (IRAK3, Homo sapiens, UniProt Q9Y616)",100
"Beta-adrenergic receptor kinase 1 (GRK2, Homo sapiens, UniProt P25098)",100
"Tyrosine-protein kinase ABL1, non-phosphorylated (ABL1, Homo sapiens, UniProt P00519, T315I)",100
"Cytoplasmic tyrosine-protein kinase BMX (BMX, Homo sapiens, UniProt P51813)",100
"Protein kinase C iota type (PRKCI, Homo sapiens, UniProt P41743)",100
"5'-AMP-activated protein kinase catalytic subunit alpha-2 (PRKAA2, Homo sapiens, UniProt P54646)",100
"Protein kinase C theta type (PRKCQ, Homo sapiens, UniProt Q04759)",100
"Mitogen-activated protein kinase 1 (MAPK1, Homo sapiens, UniProt P28482)",93
"Calcium/calmodulin-dependent protein kinase type II subunit beta (CAMK2B, Homo sapiens, UniProt Q13554)",100
"Ephrin type-A receptor 8 (EPHA8, Homo sapiens, UniProt P29322)",100
"G protein-coupled receptor kinase 3 (GRK3, Homo sapiens, UniProt P35626)",100
"Protein kinase C delta type (PRKCD, Homo sapiens, UniProt Q05655)",100

# Series 2
# Compound: Nc1[nH]nc2nnc(-c3c(-c4ccccc4)nn4ccccc34)cc12
# Observed: enzyme activity
# Mode: inhibitor
# Concentration: 0.5 µM
# Reference: control
target,remaining activity [%]
"Myotonin-protein kinase (DMPK, Homo sapiens, UniProt Q09013)",103
"Serine/threonine-protein kinase D1 (PRKD1, Homo sapiens, UniProt Q15139)",68.4
"Aurora kinase A (AURKA, Homo sapiens, UniProt O14965)",101
"Mitogen-activated protein kinase kinase kinase 2 (MAP3K2, Homo sapiens, UniProt Q9Y2U5)",97.8
"Calcium/calmodulin-dependent protein kinase type 1D (CAMK1D, Homo sapiens, UniProt Q8IU85)",95.9
"STE20-like serine/threonine-protein kinase (SLK, Homo sapiens, UniProt Q9H2G2)",94
"Dual specificity tyrosine-phosphorylation-regulated kinase 4 (DYRK4, Homo sapiens, UniProt Q9NR20)",95.3
"Protein-tyrosine kinase 2-beta (PTK2B, Homo sapiens, UniProt Q14289)",95.4
"Serine/threonine-protein kinase BRSK1 (BRSK1, Homo sapiens, UniProt Q8TDC3)",98.6
"Rho-associated protein kinase 2 (ROCK2, Homo sapiens, UniProt O75116)",89.6
"Proto-oncogene tyrosine-protein kinase ROS (ROS1, Homo sapiens, UniProt P08922)",80.2
"Homeodomain-interacting protein kinase 3 (HIPK3, Homo sapiens, UniProt Q9H422)",95.3
"G protein-coupled receptor kinase 5 (GRK5, Homo sapiens, UniProt P34947)",106
"Proto-oncogene tyrosine-protein kinase receptor Ret (RET, Homo sapiens, UniProt P07949)",93.7
"Serine/threonine-protein kinase Nek9 (NEK9, Homo sapiens, UniProt Q8TD19)",93.3
"Serine/threonine-protein kinase N2 (PKN2, Homo sapiens, UniProt Q16513)",98.9
"Casein kinase II subunit alpha' (CSNK2A2, Homo sapiens, UniProt P19784)",93.4
"Epidermal growth factor receptor (EGFR, Homo sapiens, UniProt P00533)",83.9
"NT-3 growth factor receptor (NTRK3, Homo sapiens, UniProt Q16288)",76.6
"Mitogen-activated protein kinase kinase kinase 8 (MAP3K8, Homo sapiens, UniProt P41279)",95
"Mitogen-activated protein kinase 10 (MAPK10, Homo sapiens, UniProt P53779)",103
"Calcium/calmodulin-dependent protein kinase type 1G (CAMK1G, Homo sapiens, UniProt Q96NX5)",99.2
"Cyclin-dependent kinase 2, with cyclin A (CDK2, Homo sapiens, UniProt P24941)",92.9

# Series 3
# Target: Histone acetyltransferase KAT6A, winged helix 1, GST fusion (KAT6A, Homo sapiens, UniProt Q92794, residues 1-85)
# Technique: protein binding microarray
# Form: double-stranded DNA, one strand shown
# Sample: in vitro
# Concentration: not given
# Notes: 8-mer, flanks averaged, mean of 2 arrays, mostly near background
# Reference: not given
# Reading: higher = stronger binding
# Target sequence (chain): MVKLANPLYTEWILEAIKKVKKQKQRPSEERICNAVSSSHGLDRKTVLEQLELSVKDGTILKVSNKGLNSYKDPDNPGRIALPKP
Strand,E-score
GTAGTCTA,-0.0825
GACGCTCC,0.28
GCCACTGA,-0.231
TGAAGTCA,-0.183
GTCACCGA,-0.148
CCATTGTC,-0.14
GACCAGCC,0.00826
AATCGTGG,-0.155

# Series 4
# Target: Interferon regulatory factor 7, full length, phosphomimetic (IRF7, Homo sapiens, UniProt Q92985, residues 1-503, S471D/S472D/S475D/S476D/S477D/S483D/S484D/S487D)
# Chain of UniProt Q92985 (whole entry, unmodified, looked up): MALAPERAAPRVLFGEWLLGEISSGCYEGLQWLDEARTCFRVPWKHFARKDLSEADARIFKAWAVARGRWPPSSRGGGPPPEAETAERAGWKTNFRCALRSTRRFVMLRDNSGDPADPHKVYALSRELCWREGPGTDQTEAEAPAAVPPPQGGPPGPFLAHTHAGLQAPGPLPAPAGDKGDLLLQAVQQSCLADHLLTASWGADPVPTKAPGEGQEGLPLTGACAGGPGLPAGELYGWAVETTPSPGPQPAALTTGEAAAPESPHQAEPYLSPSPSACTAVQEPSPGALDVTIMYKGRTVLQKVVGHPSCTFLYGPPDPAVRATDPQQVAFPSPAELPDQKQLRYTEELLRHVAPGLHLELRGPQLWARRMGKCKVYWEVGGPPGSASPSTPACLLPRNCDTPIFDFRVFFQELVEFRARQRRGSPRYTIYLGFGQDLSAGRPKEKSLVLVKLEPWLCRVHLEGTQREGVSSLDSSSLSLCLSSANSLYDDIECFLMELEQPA
# Technique: protein-binding microarray
# Form: double-stranded DNA, one strand shown
# Sample: in vitro
# Concentration: 2200 nM top
# Notes: 60-bp whole probe
# With: salmon DNA 0.4 mg/ml
# Reference: random background probes
# Reading: higher = stronger binding
# All sequences stand within: GCCTAGCAC … GTCTTGATTCGCTTGACGCTGCTG
Strand,fitted relative affinity [z-score]
TTAGAGCTGAGTATCGATTAGTGCTAG,-0.398
GACGGTTTCGACTTTCTGGACGTGCTA,6.86
GACTGTATCGGGTATCGGGACGTGCTA,0.0409
GGAGGAGCGGGACTGCCACCGTGCTAG,-1.01
TTAGGTAACGGGACTGGGTTAGTGCTA,-0.832
GACGGTTTCGACTATCGAGACGTGCTA,3.17
TCAATTCCCTTTCTCAAACTGTGCTAG,2.29
GACGGTTTCCTACGGCTGACGTGCTAG,1.16

# A few entries again (series 3):
Strand,E-score
GACCAGCC,0.00826
GTCACCGA,-0.148
AATCGTGG,-0.155
GCCACTGA,-0.231
TGAAGTCA,-0.183
